Results collected from several papers.
Compare with care: the assays were run in different laboratories. Values joined by “and” are separate records of one study, mostly repeats; a detail may differ. Numbers after ± are the reported error. Converted amounts (≈) assume the structure as drawn.

CCCNCCc1c[nH]c2cccc(O)c12.CCCNCCc1c[nH]c2cccc(O)c12.O=C(O)/C=C/C(=O)O  distance travelled (C57BL/6J mice; subcutaneous, 0.1 mg/kg, 30 min): 1850 ± 247 cm
CC[C@H](C)[C@H](NC(=O)[C@H](C)NC(=O)[C@H](CCCCN)NC(=O)[C@H](CC(C)C)NC(=O)[C@H](C)NC(=O)[C@@H](NC(=O)[C@H](Cc1c[nH]cn1)NC(=O)[C@H](CC(C)C)NC(=O)[C@@H](NC(=O)[C@@H](NC(=O)[C@H](CCCCN)NC(=O)[C@H](C)NC(=O)[C@H](C)NC(=O)[C@H](CO)NC(=O)[C@H](CCCCN)NC(=O)[C@H](Cc1ccccc1)NC(=O)[C@@H](NC(=O)[C@H](CCCCN)NC(=O)[C@H](CC(C)C)NC(=O)[C@H](Cc1ccccc1)NC(=O)[C@H](CO)NC(=O)[C@H](CCCCN)NC(=O)[C@H](Cc1c[nH]c2ccccc12)NC(=O)[C@H](CCCCN)NC(C)=O)[C@@H](C)O)[C@@H](C)O)C(C)C)[C@@H](C)O)C(=O)N[C@@H](CO)C(=O)N[C@@H](CO)C(N)=O  MIC90 (Enterococcus faecium; 40 strains): 64 µg/mL (≈ 21.8 µM)
CS(=O)(=O)CCCn1c(Cn2c(=O)n(CC(F)(F)F)c3ccncc32)cc2cc(Cl)ccc21  LS mean viral load change (respiratory syncytial virus; RT-qPCR; hospitalized infants 1-24 months, nasal swab; oral, 6, 4.5 or 3 mg/kg daily, day 3, mid dose by age cohort; relative to: baseline): -1.24 log10 copies/mL
CCNCCc1c[nH]c2cccc(O)c12.CCNCCc1c[nH]c2cccc(O)c12.O=C(O)CCC(=O)O  distance travelled (C57BL/6J mice; subcutaneous, 10 mg/kg, 30 min session): 1600 ± 276 cm
CCCCCC(=O)N[C@H]1CCOC1=O  inhibition (ExpR2 (Pectobacterium carotovorum); cellulase activity, antagonist; Pectobacterium carotovorum, single-ExpR2 strain; 5 µM, 4 h, with: OHHL 5 µM): 12%
O=c1ccn([C@@H]2O[C@](F)(CO)[C@@H](O)[C@H]2O)c(=O)[nH]1  normalized viral replication (human respiratory syncytial virus; recombinant reporter virus; concentration not given, scale 0 to 100, with: adenosine 0.13 µM): 1.55 and 1.7 and 1.49
CC[C@H](C)[C@@H]1NC(=O)[C@@H]2CCCN2C(=O)[C@H](CC(C)C)NC(=O)[C@H](CC(C)C)NC(=O)CNC(=O)[C@@H](NC(=O)[C@@H](NC(=O)[C@H](CC(=O)O)NC(=O)CNC(=O)[C@@H](NC(=O)[C@H](C)NC(=O)CNC(=O)[C@H](CCCCN)NC(=O)[C@H](CC(C)C)NC(=O)[C@H](CC(C)C)NC(=O)[C@H](CCCCN)NC(=O)CNC(=O)[C@@H](NC(=O)[C@@H](N)CC(C)C)C(C)C)C(C)C)C(C)C)CSSC[C@@H](C(=O)O)NC1=O  log2 fold change (RNA-seq, measured: Ppp1r35; mouse, traumatic brain injury model, frontal cortex and hippocampus; dose not given; relative to: TBI alone): -0.925
CCCCCCCCCCCCCCCC[N+](C)(C)CCCCCCCCCC[N+](C)(C)CCCCCCCCCCCCCCCC.[Br-].[Br-]  protection (influenza A virus A/PR/8/34 (H1N1); concentration not given, co-treatment): 77.2 ± 5.2%
CN1CCN(C2(CNC3CCN(c4cccc(-c5cc6cc(F)ccc6[nH]5)c4)CC3)CCC2)CC1  CC50 (HCT-15): 4.39 µM
CCCCCCCCCCCCCCCC[N+](C)(C)CCCCCC[N+](C)(C)CCCCCCCCCCCCCCCC.[Br-].[Br-]  protection (influenza A virus A/PR/8/34 (H1N1); concentration not given, pre-treatment): 77.6 ± 8.1%
CCCCC1(CCCC)CN(c2ccccc2)c2cc(SC)c(OCC(=O)N[C@@H](C(=O)NCC(=O)O)c3ccccc3)cc2S(=O)(=O)C1  serum LDL-C (measured: LDL cholesterol; human, serum; 5 mg once daily, day 13): 97.4 mg/dL
O=C(O)/C=C/C(=O)O.Oc1cccc2[nH]cc(CCNC3CCCCC3)c12  distance travelled (C57BL/6J mice; subcutaneous, 30 mg/kg, 30 min): 1380 ± 352 cm
CCCCCCCCCCCCCCCC[N+](C)(C)Cc1ccc(C[N+](C)(C)CCCCCCCCCCCCCCCC)cc1.[Br-].[Br-]  protection (influenza A virus A/PR/8/34 (H1N1); concentration not given, co-treatment): 65.4 ± 1.9%
C=CCN1CC[C@]23c4c5ccc(O)c4O[C@H]2C(=O)CC[C@@]3(O)[C@H]1C5  % MPE (tail-flick test; male ICR-CD1 mice; subcutaneous, 5 mg/kg, 60 min): 15.3% and 0.015% and -18.3% and -21.2% and -5.32% and 6.05%
CCCCNCCc1c[nH]c2cccc(O)c12.O=C(O)/C=C/C(=O)O  head twitch count (C57BL/6J mice; subcutaneous, 0.3 mg/kg): 5.5 ± 1
Nc1nc2c(ncn2[C@@H]2O[C@@H]3COP(=O)(O)O[C@H]4[C@@H](O)[C@H](n5cnc6c(N)ncnc65)O[C@@H]4COP(=O)(O)O[C@@H]2[C@@H]3O)c(=O)[nH]1  persistence of STING oligomerization (STING (human); Blue-Native PAGE; HEK293T expressing STING; 100 µM): ≥ 30 min
C[C@H]1O[C@@H](O[C@H]2CC[C@@]3(C)[C@@H](CC[C@]4(C)[C@@H]3C=C[C@]35OC[C@@]6(CCC(C)(C)C[C@H]63)[C@@H](O)C[C@]54C)[C@]2(C)CO)[C@H](O)[C@@H](O[C@@H]2O[C@H](CO)[C@@H](O)[C@H](O)[C@H]2O)[C@H]1O  AST/ALT ratio (mouse, ethanol-fed, hepatic SIRT1 knockdown, plasma; dose not given, high dose): 2.47 and 3.28 and 2.39 and 2.71 and 2.69 and 2.83
C=CCNCCc1c[nH]c2cccc(O)c12.C=CCNCCc1c[nH]c2cccc(O)c12.O=C(O)/C=C/C(=O)O  head twitch count (C57BL/6J mice; subcutaneous, 10 mg/kg): 78.2 ± 5.5
N.N.[Cl][Pt][Cl]  tumour volume (SAS xenograft, KSN/Slc nude mice; dose not given, day 4, group mean): 152 mm3
NCCc1ccc(Oc2ccc(O)cc2)c(I)c1  maximum body temperature change (TAAR1 knock-out mice; ip, 25 mg/kg, 30 min; relative to: saline): -3 ± 0.2 °C
CC(C)(C)NCCc1c[nH]c2cccc(O)c12.CC(C)(C)NCCc1c[nH]c2cccc(O)c12.O=C(O)/C=C/C(=O)O  head twitch count (C57BL/6J mice; subcutaneous, 0.1 mg/kg): 4.8 ± 0.9
CN1CCN(S(=O)(=O)c2cc([N+](=O)[O-])ccc2N(CCOS(C)(=O)=O)CCOS(C)(=O)=O)CC1  EFS ratio (T/C) (NSG mice, sample CC PDX; intraperitoneal, 25 mg/kg weekly x3; relative to: treated over vehicle): 1
CCCCCCCCCCCCCCCCCC[N+](C)(C)CCCCCCCCCC[N+](C)(C)CCCCCCCCCCCCCCCCCC.[Br-].[Br-]  protection (influenza A virus A/PR/8/34 (H1N1); concentration not given, post-treatment): 65.6 ± 4.5%
CC(C)NCCc1c[nH]c2cccc(O)c12.O=C(O)/C=C/C(=O)O  distance travelled (C57BL/6J mice; subcutaneous, 0.3 mg/kg, 30 min): 2220 ± 219 cm
CCCCCCCCCCCC[N+](C)(C)CCCCCC[N+](C)(C)CCCCCCCCCCCC.[Br-].[Br-]  HA titre reduction (influenza A virus A/PR/8/34 (H1N1); concentration not given, co-treatment): 5.5 ± 0.5 log units
COc1c(CCC[P+](c2ccccc2)(c2ccccc2)c2ccccc2)cc2c(c1OC)OCO2.[I-]  TGI (UO-31; SRB): -4.33 log M
CCCCCCCCCCCCCCCCCC[N+](C)(C)CCCCCCCCCCCC[N+](C)(C)CCCCCCCCCCCCCCCCCC.[Br-].[Br-]  protection (influenza A virus A/PR/8/34 (H1N1); concentration not given, pre-treatment): 60.5 ± 4.3%
COc1cc(CCC[P+](c2ccccc2)(c2ccccc2)c2ccccc2)c(OC)c2c1OCO2.[I-]  GI50 (NCI-H522; SRB): -5.84 log M
O=C1c2c(O)c(=O)ccn2N([C@@H]2c3ccccc3SCc3c2ccc(F)c3F)[C@@H]2COCCN12  lung virus titre (influenza A virus H1N1; A/WSN/33, BALB/c mice, lung; subcutaneous, 0.25 mg/kg every 6 h, 24 h): 3 log10 TCID50/mL and 3.23 log10 TCID50/mL and 3.5 log10 TCID50/mL

Repeated from above:
C=CCN1CC[C@]23c4c5ccc(O)c4O[C@H]2C(=O)CC[C@@]3(O)[C@H]1C5  % MPE (tail-flick test; male ICR-CD1 mice; subcutaneous, 5 mg/kg, 60 min): 15.3% and 0.015% and -18.3% and -21.2% and -5.32% and 6.05%
CCCCCCCCCCCC[N+](C)(C)CCCCCC[N+](C)(C)CCCCCCCCCCCC.[Br-].[Br-]  HA titre reduction (influenza A virus A/PR/8/34 (H1N1); concentration not given, co-treatment): 5.5 ± 0.5 log units
Nc1nc2c(ncn2[C@@H]2O[C@@H]3COP(=O)(O)O[C@H]4[C@@H](O)[C@H](n5cnc6c(N)ncnc65)O[C@@H]4COP(=O)(O)O[C@@H]2[C@@H]3O)c(=O)[nH]1  persistence of STING oligomerization (STING (human); Blue-Native PAGE; HEK293T expressing STING; 100 µM): ≥ 30 min
C[C@H]1O[C@@H](O[C@H]2CC[C@@]3(C)[C@@H](CC[C@]4(C)[C@@H]3C=C[C@]35OC[C@@]6(CCC(C)(C)C[C@H]63)[C@@H](O)C[C@]54C)[C@]2(C)CO)[C@H](O)[C@@H](O[C@@H]2O[C@H](CO)[C@@H](O)[C@H](O)[C@H]2O)[C@H]1O  AST/ALT ratio (mouse, ethanol-fed, hepatic SIRT1 knockdown, plasma; dose not given, high dose): 2.47 and 3.28 and 2.39 and 2.71 and 2.69 and 2.83
